Published values gathered from unrelated publications.
Numbered parts are unrelated; each lists some results of a single study. Substitutions count along the parent as printed.

Sample 1
Target: Interferon regulatory factor 7, full length, phosphomimetic (IRF7, Homo sapiens, UniProt Q92985, residues 1-503, S101K/S471D/S472D/S475D/S476D/S477D/S483D/S484D/S487D)
Method: protein-binding microarray
Molecule type: double-stranded DNA, one strand shown
Matrix: in vitro
Concentration: 250 nM
Notes: 60-bp whole probe
Together with: salmon DNA 0.4 mg/ml
Reference: random background probes
Direction: higher = stronger binding
Shared flanks, not repeated: GCCTAGCAC … GTCTTGATTCGCTTGACGCTGCTG
Residues (chain): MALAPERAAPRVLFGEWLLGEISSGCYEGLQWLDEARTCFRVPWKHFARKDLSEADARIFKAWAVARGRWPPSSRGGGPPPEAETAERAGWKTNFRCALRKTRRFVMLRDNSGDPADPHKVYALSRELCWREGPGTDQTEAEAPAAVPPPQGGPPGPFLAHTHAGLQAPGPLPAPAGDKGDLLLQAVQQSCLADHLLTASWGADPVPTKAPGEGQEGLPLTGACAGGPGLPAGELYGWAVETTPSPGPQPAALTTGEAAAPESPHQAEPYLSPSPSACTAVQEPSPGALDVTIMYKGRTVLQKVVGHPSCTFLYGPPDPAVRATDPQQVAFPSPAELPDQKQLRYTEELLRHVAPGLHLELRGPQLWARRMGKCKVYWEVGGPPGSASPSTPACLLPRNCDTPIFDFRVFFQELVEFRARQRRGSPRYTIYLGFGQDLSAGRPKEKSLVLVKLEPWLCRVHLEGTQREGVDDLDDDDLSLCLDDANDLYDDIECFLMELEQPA
| Oligonucleotide | log fluorescence |
| --- | --- |
| GACGGACTGCTTAGCCTGACGTGCTAG | -0.592 z-score |
| TCAGGACTGGACTATCGGTTAGTGCTA | -0.54 z-score |
| GACGGTTTCGGAATCGGGACGTGCTAG | 9.72 z-score |
| ATTGCTTTCTCTTTCATTGCGTGCTAG | 1.21 z-score |
| TTAGGTATCGCACTGGGTTAGTGCTAG | 0.154 z-score |

Sample 2
Target: CCNF, cyclin fold, Cln2 fusion (human)
Method: yeast growth competition, sequencing
Matrix: yeast
Notes: strong parent motif
Reference: not given
Direction: higher = stronger binding
Starting sequence: SAMHD1 docking peptide (human); ASKSRVQLFKDDP; partner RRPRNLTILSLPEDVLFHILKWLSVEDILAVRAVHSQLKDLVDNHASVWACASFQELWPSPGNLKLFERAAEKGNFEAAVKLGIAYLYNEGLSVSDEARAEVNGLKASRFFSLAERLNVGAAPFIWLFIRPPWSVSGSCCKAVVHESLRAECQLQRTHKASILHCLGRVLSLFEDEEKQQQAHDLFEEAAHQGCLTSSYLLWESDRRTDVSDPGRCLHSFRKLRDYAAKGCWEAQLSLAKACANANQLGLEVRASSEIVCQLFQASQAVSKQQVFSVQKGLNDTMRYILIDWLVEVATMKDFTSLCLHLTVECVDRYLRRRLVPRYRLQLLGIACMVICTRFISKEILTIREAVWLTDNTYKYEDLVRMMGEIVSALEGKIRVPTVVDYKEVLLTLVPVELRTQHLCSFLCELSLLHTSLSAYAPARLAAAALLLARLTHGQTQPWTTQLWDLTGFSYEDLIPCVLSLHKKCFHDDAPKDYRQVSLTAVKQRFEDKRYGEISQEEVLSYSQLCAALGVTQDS
| Substitution | normalised enrichment score |
| --- | --- |
| V6I | 0.478 |
| V6E | 0.0208 |
| S2Q | 1.5 |
| S4A | 4.77 |
| L8V | 0.0729 |
| L8D | -0.143 |
| V6F | 0.372 |

Sample 3
Target: ABI1, truncated, D143A, DHFR fusion (Arabidopsis thaliana)
Method: DHFR PCA, deep sequencing
Matrix: yeast
Notes: methotrexate growth selection, single substitutions
Together with: (+)-ABA 0.39 µM
Reference: wild-type fitted maximum
Direction: higher = stronger binding
Starting sequence: PYL1, truncated, DHFR fusion (Arabidopsis thaliana); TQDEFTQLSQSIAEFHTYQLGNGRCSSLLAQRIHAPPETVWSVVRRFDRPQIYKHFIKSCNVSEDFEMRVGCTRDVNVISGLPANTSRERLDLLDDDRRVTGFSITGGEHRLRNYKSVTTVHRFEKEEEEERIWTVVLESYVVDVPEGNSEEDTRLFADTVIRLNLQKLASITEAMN; partner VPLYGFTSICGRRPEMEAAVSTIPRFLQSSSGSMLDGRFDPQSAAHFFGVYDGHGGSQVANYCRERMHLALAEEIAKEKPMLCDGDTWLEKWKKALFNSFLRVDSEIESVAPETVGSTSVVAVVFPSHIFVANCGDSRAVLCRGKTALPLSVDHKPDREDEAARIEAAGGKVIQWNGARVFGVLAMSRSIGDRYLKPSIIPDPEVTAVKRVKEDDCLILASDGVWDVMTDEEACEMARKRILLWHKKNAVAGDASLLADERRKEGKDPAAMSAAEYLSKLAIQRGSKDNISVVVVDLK
| Substitution | relative binding score [%] |
| --- | --- |
| E89F | -2.81 |
| T119S | -7.48 |
| V142R | 3.79 |
| G23L | 3.13 |
| R46G | 0.212 |
| C25W | 1.78 |
| T17V | -0.334 |
| F157T | 8.77 |

Other studies, line by line
| Molecule | target | test | test system | conditions | scale | endpoint | value |
| --- | --- | --- | --- | --- | --- | --- | --- |
| PhoQ, residues 284 288 289 292 302 303 GASLAW | PhoP, residues 12 14 15 18 19 LYFRQ (Escherichia coli, UniProt P23836) | Sort-seq, refers to: YFP reporter | E. coli | PhoQ-PhoP variant library, together with: 10 µM Mg2+ | reference: high Mg2+ state, higher = stronger signaling | fold induction | 54.1 |

For quick reference, copied from above (other studies, line by line):
| Molecule | target | test | test system | conditions | scale | endpoint | value |
| --- | --- | --- | --- | --- | --- | --- | --- |
| PhoQ, residues 284 288 289 292 302 303 GASLAW | PhoP, residues 12 14 15 18 19 LYFRQ (Escherichia coli, UniProt P23836) | Sort-seq, refers to: YFP reporter | E. coli | PhoQ-PhoP variant library, together with: 10 µM Mg2+ | reference: high Mg2+ state, higher = stronger signaling | fold induction | 54.1 |
